Results from different studies.
Protocols differ between the studies behind these lines. ± marks the error that the study gave. ≈ marks a conversion by molar mass, not a printed value.

The affinity ratio of `C[C@H](N)C(=O)N[C@@H](C)C(=O)O` is reported as ~10 fold (PepTSt Streptococcus thermophilus; competition uptake in proteoliposomes; baseline: compound over tri-alanine).
`OB(O)c1sccc1/C=N/OCc1ccccc1`: inhibition “inactive” (human pancreatic trypsin; enzyme activity, inhibitor; 100 µM).
`CC(=O)[C@@]1(O)CC[C@H]2[C@@H]3CCC4=CC(=O)CC[C@]4(C)[C@H]3CC[C@@]21C`: BRET signal “increased” (GPR126 N terminus to ECL2; conformational change).
For `COc1cc(CCC(C)=O)ccc1O`, the IC50 was 0.165 µg/mL (≈ 0.85 µM) (mouse mAb 1-D6; antibody binding, indirect competitive ELISA; added: coating antigen 1-OVA).
The enzyme occupancy of `Cc1ccc(O)c2c3c(nn12)CCC(C)(NC(=O)c1ccc(-n2cnc4cc(C(=O)O)ccc42)cc1Cl)C3` (stereo not shown) is reported as > 65% (factor IXa rat; arteriovenous shunt; rat; for clot weight below 50 mg).
For `CN1CCCNC(=O)CC2(CCCCC2)CC(=O)NCCCN(C)CCCNc2cccc3c2C(=O)c2cccc(c2C3=O)NCCC1`, “melting temperature increase” read 2.8 °C (telomeric G-quadruplex DNA; circular dichroism; 4.5 µM, 100 mM K+).
For `Nc1ccc(C2CC2)cc1`, “average chemical shift perturbation” read < 0.029 ppm (HBV core protein Cp149 dimer; solution NMR; 4 molar equivalents, pH 7.5, 295 K, average over eight residues; baseline: apo Cp149 dimer).
`CCOC(=O)[C@H](CCCNC(N)=O)NC(=O)[C@H](Cc1c[nH]c2ccccc12)NC(=O)[C@@H]1CCCCN1C(=O)[C@H](Cc1ccccc1)N(C)C(=O)CCl` gave a selectivity margin of 11 standard deviations (human Pin1 Cys113; competitive chemoproteomics; HEK293 lysate; baseline: next strongest competing cysteine).
For `COC(=O)CCc1ccc(N)cc1`, “average chemical shift perturbation” read < 0.029 ppm (HBV core protein Cp149 dimer; solution NMR; 4 molar equivalents, pH 7.5, 295 K, average over eight residues; baseline: apo Cp149 dimer).
`C[C@H](NC(=O)CNC(=O)[C@H](Cc1ccc(O)cc1)NC(=O)[C@@H](N)CSSC[C@H](N)C(=O)N[C@@H](Cc1ccc(O)cc1)C(=O)NCC(=O)N[C@@H](C)C(=O)N[C@@H](CCCCN)C(N)=O)C(=O)N[C@@H](CCCCN)C(N)=O`: inhibition “no inhibition” (calpain, rabbit; enzyme activity; rabbit renal proximal tubule cells; 100 µM, 30 min).
Under CaMKII autophosphorylation, `CCOc1c(C(C)(C)O)sc2cnc(Nc3ccc(N4CCC(N5CC6(COC6)C5)CC4)cc3OC)nc12` is recorded as “decreased” (CaMKII, mouse; Western blot, item: phospho-Thr287 CaMKII over total; C57BL/6J mouse, TAC heart failure, heart; oral, 30 mg/kg once daily, 7 days; baseline: vehicle).
Under “GI50 of mitoxantrone”, `COc1cc(O)c(C(=O)/C=C/c2cccc3ccccc23)c(OC)c1` is recorded as 17.5 ± 2.2 nM (ABCG2; cell growth, chemosensitizer, MTT; HEK293 transfected with ABCG2; 1 µM, 72 h).
`COc1cc(/C=C/C(=O)CC(C)=O)ccc1O` has an increase of 85% (glutathione reductase; enzyme activity; MCF7; 25 µM, 48 h).
`CCCCC/C=C/C(=O)CCc1ccc(O)c(OC)c1` gave an IC50 of 0.224 µg/mL (≈ 0.809 µM) (mAb 5-D8; antibody binding, indirect competitive ELISA; added: coating antigen hapten 1-OVA).
`[64Cu+2].c1cnc(CNCc2ccc(CN3CCCN4CCNCCCN(CC4)CC3)cc2)nc1` — result for “uptake increase by blocking”: 42% (CXCR4; NOD/SCID mice, U87 xenograft, kidney; dose not given, 90 min post-injection, added: AMD3465 25 mg/kg; baseline: unblocked).
With `O=C(Nc1ccc(S(=O)(=O)Nc2nccs2)cc1)c1cc(-c2ccco2)nc2ccccc12` the inhibition was ~30% (ChREBP human; reporter gene, inhibitor, LPK promoter luciferase; HepG2; 3 µM, added: high glucose).
`C=C1CN(S(=O)(=O)c2ccc(C)cc2)CCCN(Cc2ccccc2)CCCN(S(=O)(=O)c2ccc(C)cc2)C1` — result for translocation: “inhibited” (huCD4-PL chimera; cell-free translation; reticulocyte lysate, microsomes; 15 µM and higher).
With `NC(=O)C1CCCCNC(=O)C(CCCNC(=O)c2cnccn2)NC(=O)C(Cc2ccco2)NC(=O)C(CC2CC2)NC(=O)C=CC(=O)N1` (stereo not shown) the enrichment factor was 1.1 (AMPK; binding, DNA-templated library selection; one selection round).
`O=C(Cc1ccc2ccccc2c1)N[C@H](Cc1ccccc1)C(=O)N[C@H](Cc1ccccc1)C(=O)N[C@H](Cc1ccc(O)cc1)C(=O)N[C@H](Cc1ccc(OP(=O)(O)O)cc1)C(=O)O`: “time to near-complete dephosphorylation” ≤ 24 h (alkaline phosphatase; substrate; 0.5 wt %, added: ALP 0.02 U/mL).
`Nc1ccc(Cc2ccccc2)cc1`: “average chemical shift perturbation” 0.071 ppm (HBV core protein Cp149 dimer; solution NMR; 4 molar equivalents, pH 7.5, 295 K, average over eight residues; baseline: apo Cp149 dimer).
`[Cl][Pd-2]1([Cl])[N+](=P(c2ccccc2)(c2ccccc2)[c-]2cccc2)Cc2cccc[n+]21.[Cl][Pd-2]1([Cl])[N+](=P(c2ccccc2)(c2ccccc2)[c-]2cccc2)Cc2cccc[n+]21.[Fe+2]`: “metal/DNA ratio at coalescence” 0.25 (plasmid DNA pBR322; electrophoretic mobility shift; 20 h, 37 °C).
With `CS(=O)(=O)CCC1NC(=O)C(Cc2ccco2)NC(=O)C(CC2CC2)NC(=O)C=CC(=O)NC(C(N)=O)CCNC1=O` (stereo not shown) the enrichment factor was 1 (AMPK; binding, DNA-templated library selection; one selection round).
`COc1ccc(OC)c(/C=C/C(=O)c2ccc3c(c2)OCO3)c1` — result for “GI50 of mitoxantrone”: 26.7 ± 11.4 nM (ABCG2; cell growth, chemosensitizer, MTT; HEK293 transfected with ABCG2; 1 µM, 72 h).
`CC(=O)c1cnc(N)nc1N1CC[C@H]1c1nn2ccc(Cl)c2c(=O)n1-c1ccccc1` gave a binding of 78% (PI3K beta; KiNativ; dog white blood cell lysate; 1 µM).
For `Cc1sc2ncn(CC(=O)N3CCCC3)c(=O)c2c1-c1cccc(Br)c1`, “unitary current amplitude 3” read -2.16 ± 0.57 pA (NMDA receptor, mouse; single-channel current, outside-out patch; cortical neurons; concentration not given, holding -80 mV, added: Ca2+ 1.25 mM).

For quick reference, copied from above:
`CCCCC/C=C/C(=O)CCc1ccc(O)c(OC)c1` gave an IC50 of 0.224 µg/mL (≈ 0.809 µM) (mAb 5-D8; antibody binding, indirect competitive ELISA; added: coating antigen hapten 1-OVA).
